Experimental data gathered from unrelated publications.
Compare with care: the assays were run in different laboratories. Numbers after ± are the reported error.
Cell line: HeLa

With NC([S-])=NN=CC=NN=C(N)[S-].O=[N+]([O-])[O-].[Co+3].c1c[nH]cn1.c1c[nH]cn1 the IC50 was 7400 nM (cell growth or viability, MTT).
With CC[C@H](C)[C@@H]([C@@H](CC(=O)N1CCC[C@H]1[C@H](OC)[C@@H](C)C(=O)N[C@H](C)[C@@H](O)c1ccccc1)OC)N(C)C(=O)[C@@H](NC(=O)[C@@H](NC)C(C)C)C(C)C the IC50 was ~4 nM (cell growth or viability; 72 h).
With N.N.[Cl][Pt][Cl] the IC50 was 1370 nM (cell growth or viability, MTT; 72 h).
CCOP(=O)(OCC)[C@H]1C[C@@H](Cn2c(=O)n(C(=O)c3ccccc3)c(=O)c3ccccc32)ON1Cc1ccccc1 (relative stereo) has an IC50 of > 250000 nM (cell growth or viability; 96 h).
The LD50 of CC1(C)Cc2cc3[nH]c(cc4nc(cc5[nH]c(cc1n2)cc5C#CC[N+](C)(C)C)CC4(C)C)cc3C#CC[N+](C)(C)C.[Cl-].[Cl-] is reported as 2000 nM (phototoxicity, MTT; 24 h, 10 J/cm^2 irradiation).
O=[N+]([O-])[O-].O=[N+]([O-])[O-].[Co+2] gave an IC50 of > 500000 nM (cell growth or viability, MTT).
NC[C@@H]1[C@H]2CN3C(=O)c4cccn4[C@@H]4NC(N)=N[C@@]43[C@@H]2[C@]2(N=C(N)N[C@H]2O)[C@H]1Cl.O=C(O)C(F)(F)F (racemic): IκBα degradation “inhibited” (confocal microscopy; concentration not given, 30 min pretreatment, added: TNF-α 20 ng/mL 30 min; baseline: TNF-α with vehicle).
CC12CCC(OC(=O)NCCCn3ccnc3)CC1CCC1C2CCC2(C)C(c3ccc(=O)oc3)CCC12O (stereo not drawn) has an IC50 of 47.3 nM (cell growth or viability, MTT).
CC1(C)Cc2cc3[nH]c(cc4nc(cc5[nH]c(cc1n2)cc5C(=O)N1CC[N+](C)(C)CC1)CC4(C)C)cc3C(=O)N1CC[N+](C)(C)CC1.[Cl-].[Cl-] gave an LD50 of 800 nM (phototoxicity, MTT; 24 h, 10 J/cm^2 irradiation).
With CNCCCNC(=O)O[C@H]1CC[C@@]2(C)[C@H](CC[C@@H]3[C@@H]2CC[C@]2(C)[C@@H](c4ccc(=O)oc4)CC[C@]32O)C1 the IC50 was 115 nM (cell growth or viability, MTT).
N#CC(=C(/N)Sc1ccccc1N)/C(C#N)=C(/N)Sc1ccccc1N gave an IC50 of 690 nM (H1R promoter reporter gene; added: PMA 100 nM for 10 h).
For CSCC[C@H](NC(=O)[C@H](CCC(N)=O)NC(=O)[C@H](CCC(N)=O)NC(=O)[C@H](CO)NC(=O)[C@H](CCCNC(=N)N)NC(=O)[C@H](CCC(=O)O)NC(=O)CNC(=O)[C@H](CC(C)C)NC(=O)CNC(=O)[C@H](CC(N)=O)NC(=O)[C@@H](NC(=O)[C@@H](N)CCC(N)=O)C(C)C)C(=O)O, the IC50 was 230 ± 20.1 µg/mL (CCK-8; 36 h).
The IC50 of N.N.[Cl][Pt][Cl] is reported as 4310 nM (cell growth or viability, resazurin).
CN[C@@H]1C[C@H]2O[C@@](C)([C@@H]1OC)n1c3ccccc3c3c4c(c5c6ccccc6n2c5c31)C(=O)NC4 gave an apoptotic cells of 38.5 ± 6.74% (annexin V/PI flow cytometry; 300 nM, 4 h).
C#CCN(Cc1cnc2nc(N)nc(N)c2n1)c1ccc(C(=O)N[C@@H](CCC(=O)O)C(=O)O)cc1 has an EC50 of > 99 µM (cell growth or viability; 24 h).

Repeated from above:
CC1(C)Cc2cc3[nH]c(cc4nc(cc5[nH]c(cc1n2)cc5C(=O)N1CC[N+](C)(C)CC1)CC4(C)C)cc3C(=O)N1CC[N+](C)(C)CC1.[Cl-].[Cl-] gave an LD50 of 800 nM (phototoxicity, MTT; 24 h, 10 J/cm^2 irradiation).
With CNCCCNC(=O)O[C@H]1CC[C@@]2(C)[C@H](CC[C@@H]3[C@@H]2CC[C@]2(C)[C@@H](c4ccc(=O)oc4)CC[C@]32O)C1 the IC50 was 115 nM (cell growth or viability, MTT).
